Experimental data from different studies.
Each line is one published result; not all experiments were run side by side. Several values in a cell are separate wells, animals, samples, runs or records. ± gives the spread as reported.
Nuclear receptor subfamily 2 group C member 2 ligand-binding domain: Nuclear receptor subfamily 2 group C member 2, ligand-binding domain (Homo sapiens, UniProt P49116)
Chain of UniProt P51575 (whole entry, unmodified, looked up): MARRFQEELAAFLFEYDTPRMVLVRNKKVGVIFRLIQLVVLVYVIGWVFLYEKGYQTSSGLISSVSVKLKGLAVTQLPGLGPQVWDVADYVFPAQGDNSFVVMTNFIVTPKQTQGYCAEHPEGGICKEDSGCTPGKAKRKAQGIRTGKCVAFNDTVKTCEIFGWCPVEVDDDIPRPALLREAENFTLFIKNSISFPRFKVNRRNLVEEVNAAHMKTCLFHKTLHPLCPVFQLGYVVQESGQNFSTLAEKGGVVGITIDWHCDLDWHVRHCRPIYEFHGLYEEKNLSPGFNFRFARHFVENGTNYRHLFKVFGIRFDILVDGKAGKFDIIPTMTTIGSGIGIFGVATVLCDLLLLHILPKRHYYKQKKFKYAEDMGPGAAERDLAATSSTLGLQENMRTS
Chain of UniProt Q16774 (whole entry, looked up): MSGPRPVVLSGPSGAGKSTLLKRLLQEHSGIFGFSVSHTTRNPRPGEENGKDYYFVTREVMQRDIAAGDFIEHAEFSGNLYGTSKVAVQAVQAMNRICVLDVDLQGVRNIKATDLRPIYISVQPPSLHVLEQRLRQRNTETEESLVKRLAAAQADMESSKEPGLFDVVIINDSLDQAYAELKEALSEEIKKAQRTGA
Chain of UniProt P11247 (whole entry, looked up): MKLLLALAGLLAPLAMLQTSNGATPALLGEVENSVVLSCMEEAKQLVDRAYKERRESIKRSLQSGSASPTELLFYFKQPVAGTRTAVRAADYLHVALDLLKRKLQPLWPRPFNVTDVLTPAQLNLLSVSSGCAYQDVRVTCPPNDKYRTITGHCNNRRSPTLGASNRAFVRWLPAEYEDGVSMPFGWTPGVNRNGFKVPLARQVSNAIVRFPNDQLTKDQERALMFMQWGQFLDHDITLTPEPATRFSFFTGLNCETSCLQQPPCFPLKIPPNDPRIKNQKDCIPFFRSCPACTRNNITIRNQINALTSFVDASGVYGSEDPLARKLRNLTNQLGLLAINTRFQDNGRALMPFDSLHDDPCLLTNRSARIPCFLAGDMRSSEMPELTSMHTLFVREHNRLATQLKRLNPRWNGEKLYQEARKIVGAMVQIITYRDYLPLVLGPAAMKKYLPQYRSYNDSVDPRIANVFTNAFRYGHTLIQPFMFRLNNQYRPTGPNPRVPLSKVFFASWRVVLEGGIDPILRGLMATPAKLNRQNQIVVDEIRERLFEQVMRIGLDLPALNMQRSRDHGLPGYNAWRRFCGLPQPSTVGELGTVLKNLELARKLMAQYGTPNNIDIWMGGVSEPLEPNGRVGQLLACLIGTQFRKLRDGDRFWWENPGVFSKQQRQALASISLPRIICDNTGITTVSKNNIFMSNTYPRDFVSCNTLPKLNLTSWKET
Chain of UniProt P27361 (whole entry, looked up): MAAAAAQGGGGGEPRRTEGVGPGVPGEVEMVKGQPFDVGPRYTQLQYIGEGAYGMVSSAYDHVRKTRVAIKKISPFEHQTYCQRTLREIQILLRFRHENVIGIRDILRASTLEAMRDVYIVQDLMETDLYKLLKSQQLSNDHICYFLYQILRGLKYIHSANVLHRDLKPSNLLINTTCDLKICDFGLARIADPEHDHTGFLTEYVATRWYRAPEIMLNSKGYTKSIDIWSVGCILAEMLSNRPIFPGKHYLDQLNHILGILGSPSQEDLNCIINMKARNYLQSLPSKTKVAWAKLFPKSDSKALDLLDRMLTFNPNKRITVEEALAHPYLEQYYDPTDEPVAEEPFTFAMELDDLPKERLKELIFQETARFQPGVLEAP
Chain of UniProt P49116 (whole entry, looked up): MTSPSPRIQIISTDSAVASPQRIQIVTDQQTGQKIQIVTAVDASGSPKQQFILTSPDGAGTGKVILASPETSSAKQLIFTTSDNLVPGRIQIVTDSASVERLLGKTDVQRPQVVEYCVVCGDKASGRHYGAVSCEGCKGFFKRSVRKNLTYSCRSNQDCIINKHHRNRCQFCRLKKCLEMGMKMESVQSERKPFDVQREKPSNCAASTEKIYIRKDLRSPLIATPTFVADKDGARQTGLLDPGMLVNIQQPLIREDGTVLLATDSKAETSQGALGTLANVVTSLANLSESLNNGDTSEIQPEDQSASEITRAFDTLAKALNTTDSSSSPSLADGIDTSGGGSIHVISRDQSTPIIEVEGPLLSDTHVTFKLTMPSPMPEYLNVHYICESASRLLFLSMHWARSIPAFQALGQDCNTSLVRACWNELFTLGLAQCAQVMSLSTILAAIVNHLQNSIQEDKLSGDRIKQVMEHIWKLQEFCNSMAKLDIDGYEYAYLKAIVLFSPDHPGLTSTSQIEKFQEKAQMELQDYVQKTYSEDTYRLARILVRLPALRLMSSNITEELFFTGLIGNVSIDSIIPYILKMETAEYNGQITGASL
Chain of UniProt Q64663 (whole entry, unmodified, looked up): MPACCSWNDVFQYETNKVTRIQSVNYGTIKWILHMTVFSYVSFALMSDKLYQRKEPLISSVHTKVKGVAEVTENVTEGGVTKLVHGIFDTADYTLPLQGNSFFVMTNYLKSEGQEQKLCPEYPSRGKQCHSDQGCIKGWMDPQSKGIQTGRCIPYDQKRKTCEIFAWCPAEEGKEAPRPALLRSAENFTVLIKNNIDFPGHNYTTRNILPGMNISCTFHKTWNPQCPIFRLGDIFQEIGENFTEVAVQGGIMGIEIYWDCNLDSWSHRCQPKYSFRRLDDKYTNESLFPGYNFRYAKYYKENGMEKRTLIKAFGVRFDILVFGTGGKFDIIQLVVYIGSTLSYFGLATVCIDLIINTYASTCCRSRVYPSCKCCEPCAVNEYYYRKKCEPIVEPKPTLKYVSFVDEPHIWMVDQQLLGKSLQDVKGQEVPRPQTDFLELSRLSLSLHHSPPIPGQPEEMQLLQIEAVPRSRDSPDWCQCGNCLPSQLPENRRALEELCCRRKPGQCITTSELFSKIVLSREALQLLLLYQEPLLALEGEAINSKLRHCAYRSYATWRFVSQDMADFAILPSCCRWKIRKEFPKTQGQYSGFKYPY
Chain of UniProt P11388 (whole entry, looked up): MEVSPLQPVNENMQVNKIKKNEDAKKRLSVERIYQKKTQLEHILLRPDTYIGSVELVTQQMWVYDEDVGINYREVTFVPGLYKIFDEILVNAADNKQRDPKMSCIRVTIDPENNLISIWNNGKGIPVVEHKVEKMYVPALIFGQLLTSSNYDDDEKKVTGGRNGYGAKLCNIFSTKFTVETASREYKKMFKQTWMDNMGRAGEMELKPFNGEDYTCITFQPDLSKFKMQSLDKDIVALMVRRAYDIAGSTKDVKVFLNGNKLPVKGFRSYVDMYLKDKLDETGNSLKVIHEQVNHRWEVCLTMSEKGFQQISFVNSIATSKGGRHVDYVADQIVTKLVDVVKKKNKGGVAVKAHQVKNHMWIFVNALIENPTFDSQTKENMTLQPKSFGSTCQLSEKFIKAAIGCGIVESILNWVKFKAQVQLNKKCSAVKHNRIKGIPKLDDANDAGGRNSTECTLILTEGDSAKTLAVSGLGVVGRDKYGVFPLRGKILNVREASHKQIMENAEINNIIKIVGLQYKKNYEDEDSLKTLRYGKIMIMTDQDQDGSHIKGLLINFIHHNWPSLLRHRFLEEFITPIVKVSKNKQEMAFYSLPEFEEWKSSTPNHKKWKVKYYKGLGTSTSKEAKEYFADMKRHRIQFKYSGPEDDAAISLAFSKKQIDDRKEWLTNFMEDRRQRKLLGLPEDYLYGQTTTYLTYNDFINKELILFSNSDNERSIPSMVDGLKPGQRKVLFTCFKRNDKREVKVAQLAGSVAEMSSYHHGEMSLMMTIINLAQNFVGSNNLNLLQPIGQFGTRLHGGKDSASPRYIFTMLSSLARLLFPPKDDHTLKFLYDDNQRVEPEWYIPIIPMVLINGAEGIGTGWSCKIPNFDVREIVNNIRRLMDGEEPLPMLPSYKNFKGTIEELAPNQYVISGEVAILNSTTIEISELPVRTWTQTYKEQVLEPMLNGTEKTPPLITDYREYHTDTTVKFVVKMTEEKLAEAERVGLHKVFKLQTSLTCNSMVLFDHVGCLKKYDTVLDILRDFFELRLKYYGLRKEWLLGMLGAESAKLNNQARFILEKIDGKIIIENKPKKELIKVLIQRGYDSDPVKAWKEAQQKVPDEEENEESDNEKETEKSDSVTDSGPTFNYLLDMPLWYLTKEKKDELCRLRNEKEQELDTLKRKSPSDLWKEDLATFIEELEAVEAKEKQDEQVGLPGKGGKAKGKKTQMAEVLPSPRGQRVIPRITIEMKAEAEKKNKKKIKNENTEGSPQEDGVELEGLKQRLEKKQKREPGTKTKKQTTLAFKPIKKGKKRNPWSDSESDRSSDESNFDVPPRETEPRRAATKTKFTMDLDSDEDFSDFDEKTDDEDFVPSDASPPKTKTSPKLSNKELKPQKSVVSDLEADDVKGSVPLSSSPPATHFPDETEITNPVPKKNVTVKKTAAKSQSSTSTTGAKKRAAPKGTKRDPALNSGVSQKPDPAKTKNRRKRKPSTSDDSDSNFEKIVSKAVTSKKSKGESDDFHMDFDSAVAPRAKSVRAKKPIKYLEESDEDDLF
Chain of UniProt Q13555 (whole entry, looked up): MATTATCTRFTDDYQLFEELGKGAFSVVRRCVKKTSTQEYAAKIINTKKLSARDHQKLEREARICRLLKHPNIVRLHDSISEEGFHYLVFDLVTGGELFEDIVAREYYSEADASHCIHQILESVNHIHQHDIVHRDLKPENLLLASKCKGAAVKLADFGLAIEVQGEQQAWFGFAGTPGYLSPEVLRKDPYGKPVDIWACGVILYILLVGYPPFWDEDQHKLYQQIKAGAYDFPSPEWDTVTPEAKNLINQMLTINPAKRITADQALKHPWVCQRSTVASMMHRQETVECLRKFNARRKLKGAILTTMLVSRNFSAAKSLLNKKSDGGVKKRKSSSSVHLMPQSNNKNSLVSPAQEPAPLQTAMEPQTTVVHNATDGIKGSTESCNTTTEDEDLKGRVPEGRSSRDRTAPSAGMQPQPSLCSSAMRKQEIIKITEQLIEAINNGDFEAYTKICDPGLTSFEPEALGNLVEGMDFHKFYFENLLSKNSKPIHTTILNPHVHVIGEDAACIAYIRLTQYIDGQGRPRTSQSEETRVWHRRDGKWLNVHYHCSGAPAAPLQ

For `C=CC[C@@H]1/C=C(\C)C[C@H](C)C[C@H](OC)[C@H]2O[C@@](O)(C(=O)C(=O)N3CCCC[C@H]3C(=O)O[C@H](/C(C)=C/[C@@H]3CC[C@@H](O)[C@H](OC)C3)[C@H](C)[C@@H](O)CC1=O)[C@H](C)C[C@@H]2OC`, the koff was 1.08e-06 s⁻¹ (Nuclear receptor subfamily 2 group C member 2 ligand-binding domain; SPR imaging; 600 nM).
`O=C(COP(=O)(O)O)[C@@H](O)[C@H](O)[C@H](O)COP(=O)(O)O` — result for “thermal stability ratio”: 0.76 and 0.56 and 0.667 (Small ribosomal subunit protein uS11 (Homo sapiens, UniProt P62263); thermal proteome profiling, measured: RPS14; HepG2 cell lysate; concentration not given, 57 over 37 °C; baseline: compound over control).
The koff of `C[C@H](CCC(=O)O)[C@H]1CC[C@H]2[C@@H]3[C@H](O)C[C@@H]4C[C@H](O)CC[C@]4(C)[C@H]3CC[C@]12C` is reported as 3.12e-08 s⁻¹ (Nuclear receptor subfamily 2 group C member 2 ligand-binding domain; SPR imaging; 600 nM).
For `CN1CCN(c2cc(-c3ccncc3)c(-c3ccc4ccccc4c3)nn2)CC1`, the activation was -2.1% (TRHR (Homo sapiens, UniProt P34981); agonist, FLIPR; 12.5 µM).
Under “fraction of accessible fluorophore”, `CCS(=O)(=O)N1CC(CC#N)(n2cc(-c3ncnc4[nH]ccc34)cn2)C1` is recorded as 0.53 to 0.69 (ORM1 (Homo sapiens, UniProt P02763); fluorescence quenching; 293-308 K).
`CC(=O)NCCCC[C@H](NC(=O)CNC(=O)CNC(=O)[C@H](CCCCNC(C)=O)NC(=O)CNC(=O)[C@H](CCCNC(=N)N)NC(=O)CNC(=O)[C@@H](N)CO)C(=O)NCC(=O)N[C@@H](CC(C)C)C(=O)NCC(N)=O` has a ΔH of -4.92 kcal/mol (BRD1 (Homo sapiens, UniProt O95696, R585F); binding, ITC; 15 °C, together with: peptide 2 mM).
Under “log2 fold change”, `N#Cc1ccc2c(-c3ccncc3)c(-c3ccc(F)cc3)nn2c1` is recorded as 0.352 (Serine/threonine-protein kinase CBK1 (CBK1, Candida albicans, UniProt Q5AP53); kinase binding, competitor, MIB/MS competition, measured: CBK1; Candida albicans cell lysate; 1 µM; baseline: DMSO).
`Nc1ncnc2c1ncn2[C@@H]1O[C@H](COP(=O)(O)OP(=O)(O)OP(=O)(O)O)[C@@H](O)[C@H]1O`: “concentration for complete inhibition” 1 mM (ATP-sensitive inward rectifier potassium channel 1 (Rattus norvegicus, UniProt P35560); channel activity, inhibitor, inside-out patch clamp; pH 7.4, Mg2+-free, no second inhibitory nucleotide).
The remaining binding of `C=CC(=O)N1CCC(COCC(=O)N2CCN(c3nc(-c4cnc(N)nc4C(F)F)nc(N4CCOC[C@@H]4C)n3)CC2)CC1` is reported as 100% (TIE1 (Homo sapiens, UniProt P35590); KINOMEscan; 1 µM).
`COc1cc2c(c(O)c1OC)C(=O)c1c(cc(C)c(O[C@@H]3O[C@H](CO)[C@@H](O)[C@H](O)[C@H]3O)c1OC)C2=O` has a cell viability of 31.1 ± 8.87% (HepaRG co-cultured with HK-2; MTT; 266.67 µM, 48 h; baseline: untreated control).
`O=C(CN1CCO[C@H](COc2ccccc2)C1)N1CCc2ccccc21` gave an inhibition of 8.3% (HTR4 (Homo sapiens, UniProt Q13639); radioligand binding; concentration not given).
Under “log fold enrichment”, `CCCCC[S+]([O-])c1n[nH]c(N)n1` (stereo not shown) is recorded as -0.119 (F-box only protein 22, with SKP1 (Homo sapiens, UniProt Q8NEZ5); binding, affinity selection mass spectrometry; baseline: other proteins in batch).
`Nc1ncnc2c1ncn2[C@@H]1O[C@H](COP(=O)(O)CP(=O)(O)OP(=O)(O)O)[C@@H](O)[C@H]1O` gave a calcium influx of 1.53% and 1.17% and 1.1% and 1.26% (P2X purinoceptor 1 (P2RX1, Homo sapiens, UniProt P51575, D170A); calcium influx; 1 µM; baseline: ionomycin response).
The koff of `CCCCC[C@H](O)/C=C/[C@H]1[C@H](O)CC(=O)[C@@H]1CCCCCCC(=O)O` is reported as 4.24e-05 s⁻¹ (Nuclear receptor subfamily 2 group C member 2 ligand-binding domain; SPR imaging; 600 nM).
`Nc1ncnc2c1ncn2[C@@H]1O[C@H](COP(=O)(O)OP(=O)(O)OP(=O)(O)O)[C@@H](O)[C@H]1O` has a normalized current of 0.991 and 0.907 and 0.959 (P2X purinoceptor 7 (P2rx7, Rattus norvegicus, UniProt Q64663, I214A/R125A); ion current, agonist, two-electrode voltage clamp; Xenopus laevis oocytes; 300 µM; baseline: highest concentration response).
For `CCCC[C@H]1CN(c2cccc(OC(F)(F)F)c2)C(=O)CN1Cc1cncn1Cc1cccc(C#N)c1`, the IC50 was 740 ± 310 nM (Cryptococcus neoformans farnesyltransferase; enzyme activity, inhibitor, fluorescence; together with: 1 µM FPP, 0.5 µM dansylated peptide).
For `CN(C)C(=O)C(CCN1CCC(O)(c2ccc(Cl)cc2)CC1)(c1ccccc1)c1ccccc1`, the Hill coefficient was 1.01 ± 0.27 (Calcium-activated potassium channel subunit alpha-1, with LRRC26 γ1 subunit (KCNMA1, Homo sapiens, UniProt Q12791); BK channel conductance, inside-out patch clamp; BKα/γ1, Vm 10 mV, nominally Ca2+-free).
`CC[C@H](C)[C@H](NC(=O)[C@H](CCC(=O)O)NC(=O)[C@H](CCC(=O)O)NC(=O)[C@@H]1CCCN1C(=O)[C@H](CC(=O)O)NC(=O)[C@H](C)NC(=O)[C@H](CCC(N)=O)NC(=O)[C@@H](NC(=O)[C@H](C)NC(=O)[C@@H](NC(=O)[C@H](CO)NC(=O)[C@@H](NC(=O)[C@H](CCCCN)NC(=O)[C@@H](N)Cc1ccc(O)cc1)[C@@H](C)O)C(C)C)[C@@H](C)O)C(=O)N[C@H](C(=O)N[C@H](C(=O)N[C@@H](CC(C)C)C(=O)N[C@@H](CC(=O)O)C(=O)N[C@@H](CC(=O)O)C(=O)N[C@@H](CC(=O)O)C(=O)N[C@@H](CC(=O)O)C(=O)O)C(C)C)[C@@H](C)CC` gave a -TΔS of -13.4 ± 0.1 kcal/mol (Small ubiquitin-related modifier 1, residues 17-97 (Homo sapiens, UniProt P63165, C52A); isothermal titration calorimetry; pH 7.4, N-terminally truncated SUMO1).
`O=C(O)[C@@H]1CCCN1c1ncnc2[nH]cnc12` (racemic) gave a fold enrichment of 1.1 (S-phase kinase-associated protein 1 (SKP1, Homo sapiens, UniProt P63208); binding, affinity selection mass spectrometry; baseline: other proteins in batch).
For `CN(C)CCC(c1ccc(Cl)cc1)c1ccccn1` (stereo not shown), the koff was 3.24e-07 s⁻¹ (Nuclear receptor subfamily 2 group C member 2 ligand-binding domain; SPR imaging; 600 nM).
With `O=P(O)(O)O[C@H]1[C@H](OP(=O)(O)O)[C@@H](OP(=O)(O)O)[C@H](OP(=O)(O)O)[C@@H](OP(=O)(O)O)[C@H]1OP(=O)(O)O` the molecular mass was 90.4 kDa (Beta-arrestin-1 (Arrb1, Rattus norvegicus, UniProt P29066); oligomeric state, SEC-MALS; 500 µM, 30 min, 4 °C, 100 µM protein injected).
`CC[C@@H]1[C@H](F)C(=O)N[C@@H]1COc1nccc2cc(C(N)=O)c(OC)cc12` gave an inhibition of 3.3% (CAMK2G (Homo sapiens, UniProt Q13555); ATP-site probe binding, ActivX profiling; THP-1 cell lysate; 0.04 mM, Lys1 site).
For `C[S+](CC[C@H](N)C(=O)O)C[C@H]1O[C@@H](n2cnc3c(N)ncnc32)[C@H](O)[C@@H]1O` (stereo partly shown), the binding stoichiometry was 2.14 ± 0.922 (O-methyltransferase (Sorghum bicolor, UniProt A0A1B6PFV1); ITC; concentration not given, together with: PTR+).
`O=C1OC(c2ccccc2)=N/C1=C\c1ccc(O)cc1` gave a Vmax of 0.063 mg/mL/min (Pancreatic alpha-amylase (Homo sapiens, UniProt P04746); inhibitor, Lineweaver-Burk; 300 ppm, together with: starch substrate).
Under “log2 fold change”, `CCN1CCC[C@H]1CNC(=O)c1c(O)c(Cl)cc(Cl)c1OC` is recorded as 0.021 (HCAR2 (Homo sapiens, UniProt Q8TDS4); β-arrestin recruitment, TANGO luminescence, measured: GPR109A; concentration not given; baseline: basal luminescence).
For `CC(C)C[C@@H]1NC(=O)[C@H](C)NC(=O)CNC(=O)[C@H](CC(N)=O)NC(=O)[C@@H]2CCCN2C(=O)[C@H](Cc2ccc(O)cc2)NC(=O)[C@H](CCCNC(=N)N)NC(=O)[C@H](Cc2ccccc2)NC(=O)[C@@H](NC(=O)[C@H](CCCCN)NC(=O)[C@@H]2CCCN2C(=O)[C@H](CO)NC(=O)[C@H](C)NC(=O)[C@@H](N)Cc2ccc(O)cc2)CSSC[C@@H](C(=O)N[C@H](C(N)=O)[C@@H](C)O)NC(=O)[C@H](C)NC1=O`, the -ΔH was 5.16 kcal/mol (Alpha-2-HS-glycoprotein, asialo (AHSG, Bos taurus, UniProt P12763); binding, isothermal titration calorimetry; pH 7.0, 25 °C, together with: asialofetuin).
The reaction velocity of `O=S(=O)(O)O` is reported as 0.0334 µM/s and 0.0443 µM/s and 0.0286 µM/s (GUK1 (Homo sapiens, UniProt Q16774); enzyme activity, NADH-coupled; 1 mM, together with: ATP 31.25 µM).
For `CC(C)C[C@H](NC(=O)C[C@H](O)[C@H](CC(C)C)NC(=O)[C@H](Cc1c[nH]cn1)NC(=O)CNC(=O)[C@@H](NC(=O)[C@H](C)NC(=O)[C@H](Cc1c[nH]c2ccccc12)NC(=O)[C@H](CCC(N)=O)NC(=O)[C@@H](Cc1ccccc1)NC(=O)COCCOCCNC(=O)CCC(C(=O)O)N1CCN(CC(=O)O)CCN(CC(=O)O)CCN(CC(=O)O)CC1)C(C)C)C(N)=O` (stereo partly shown) [lutetium-177 labelled], the tissue uptake was 0.8 ± 0.4 %ID/g (BALB/c nu/nu mice, large intestine; 750 pmol, 1 h, together with: PA 300 µg).
For `O=c1c(O)c(-c2cc(O)c(O)c(O)c2)oc2cc(O)cc(O)c12`, activity class read “active” (Serotonin N-acetyltransferase (Ovis aries, UniProt Q29495); enzyme activity, inhibitor; concentration not given, together with: acetyl-CoA).
With `CCOC(=O)c1ccc(C#Cc2ccc3c(c2)C(C)(C)CCS3)nc1` the koff was 1.06e-06 s⁻¹ (Nuclear receptor subfamily 2 group C member 2 ligand-binding domain; SPR imaging; 600 nM).
The kinase activity of `Nc1[nH]nc2nnc(-c3c(-c4ccccc4)nn4ccccc34)cc12` is reported as 14.2% and 14.6% and 11.6% (MAPK3 (Homo sapiens, UniProt P27361); ADP-Glo; 10 µM, together with: MBP substrate).
`CCC[C@H]1CN(c2cccc(OC(F)(F)F)c2)C(=O)CN1Cc1cncn1Cc1ccc(Br)cc1` gave an IC50 of 1100 ± 510 nM (Cryptococcus neoformans farnesyltransferase; enzyme activity, inhibitor, fluorescence; together with: 1 µM FPP, 0.5 µM dansylated peptide).
`NCCCS(=O)(=O)O` — result for “normalised MST signal”: 0.301 (SLC6A6 (Homo sapiens, UniProt P31641, Y138A); binding, microscale thermophoresis; 15.6 µM, room temperature, together with: 50 nM labelled protein; higher = more binding).
`COc1cc(-c2cncc3c2CN(C)Cc2cc(N4CCNCC4)ccc2-3)cc(OC)c1OC` gave a remaining activity of 110% (PIM2 (Homo sapiens, UniProt Q9P1W9); kinase activity; 1 µM, human enzyme, together with: ATP 10 µM; baseline: DMSO control).
The MPO activity of `NC/C(=C\F)COc1cccc(Cn2c(=S)[nH]c(=O)c3[nH]cnc32)c1` is reported as 66.8% and 53.2% and 14.6% and 13.4% and 61% and 42.6% (Myeloperoxidase (Mus musculus, UniProt P11247); mouse, zymosan or thioglycolate peritonitis, peritoneal fluid; 60 mg/kg; baseline: peritonitis vehicle).
`COc1cc(Nc2ncc3c(n2)-c2ccc(Cl)cc2C(c2c(F)cccc2OC)=NC3)ccc1C(=O)O` has a remaining activity of 30% (FER; kinase activity; 1 µM).
`O=c1nc(SCc2cc(F)cc(C(F)(F)F)c2)nc(SCc2ccc3nc(Cl)ccc3c2)[nH]1` has a linear DNA of 14.9% and 14.8% (TOP2A (Homo sapiens, UniProt P11388); DNA cleavage, competition with etoposide; 15.6 µM, together with: etoposide 50 µM).

Some of these lines once more:
The MPO activity of `NC/C(=C\F)COc1cccc(Cn2c(=S)[nH]c(=O)c3[nH]cnc32)c1` is reported as 66.8% and 53.2% and 14.6% and 13.4% and 61% and 42.6% (Myeloperoxidase (Mus musculus, UniProt P11247); mouse, zymosan or thioglycolate peritonitis, peritoneal fluid; 60 mg/kg; baseline: peritonitis vehicle).
Under “log2 fold change”, `CCN1CCC[C@H]1CNC(=O)c1c(O)c(Cl)cc(Cl)c1OC` is recorded as 0.021 (HCAR2 (Homo sapiens, UniProt Q8TDS4); β-arrestin recruitment, TANGO luminescence, measured: GPR109A; concentration not given; baseline: basal luminescence).
For `CC(C)C[C@H](NC(=O)C[C@H](O)[C@H](CC(C)C)NC(=O)[C@H](Cc1c[nH]cn1)NC(=O)CNC(=O)[C@@H](NC(=O)[C@H](C)NC(=O)[C@H](Cc1c[nH]c2ccccc12)NC(=O)[C@H](CCC(N)=O)NC(=O)[C@@H](Cc1ccccc1)NC(=O)COCCOCCNC(=O)CCC(C(=O)O)N1CCN(CC(=O)O)CCN(CC(=O)O)CCN(CC(=O)O)CC1)C(C)C)C(N)=O` (stereo partly shown) [lutetium-177 labelled], the tissue uptake was 0.8 ± 0.4 %ID/g (BALB/c nu/nu mice, large intestine; 750 pmol, 1 h, together with: PA 300 µg).
`O=C1OC(c2ccccc2)=N/C1=C\c1ccc(O)cc1` gave a Vmax of 0.063 mg/mL/min (Pancreatic alpha-amylase (Homo sapiens, UniProt P04746); inhibitor, Lineweaver-Burk; 300 ppm, together with: starch substrate).
The kinase activity of `Nc1[nH]nc2nnc(-c3c(-c4ccccc4)nn4ccccc34)cc12` is reported as 14.2% and 14.6% and 11.6% (MAPK3 (Homo sapiens, UniProt P27361); ADP-Glo; 10 µM, together with: MBP substrate).
`COc1cc(-c2cncc3c2CN(C)Cc2cc(N4CCNCC4)ccc2-3)cc(OC)c1OC` gave a remaining activity of 110% (PIM2 (Homo sapiens, UniProt Q9P1W9); kinase activity; 1 µM, human enzyme, together with: ATP 10 µM; baseline: DMSO control).
